Measured values of several laboratories.
Each numbered part is a random draw from the data of one study; scales do not carry over between parts. Changes are numbered by the printed parent chain.

Block 1 — technique: aptamer microarray, sandwich; form: DNA with 2'F-ANA; matrix: in vitro; concentration: 200 nM; together with: Cy3 exosite-II aptamer, 400 nM; reading: higher = stronger binding; sequence: GGTTGGTGTGGTTGG
Target: Prothrombin, mature alpha-thrombin (F2, Homo sapiens, UniProt P00734)
Notes: whole 15-mer aptamer, many near background
Modification | mean fluorescence intensity [a.u.]
2'F-ANA at 1 6 9 11 12 13 14 15 | 63.4
2'F-ANA at 1 2 5 9 11 13 | 95.2
2'F-ANA at 5 6 10 12 14 15 | 44.5
2'F-ANA at 3 4 5 6 9 13 | 62.7
2'F-ANA at 2 3 4 6 9 12 13 15 | 526
2'F-ANA at 1 4 6 9 14 | 46
2'F-ANA at 3 6 7 8 9 10 11 12 | 556
2'F-ANA at 1 2 3 4 10 11 12 13 15 | 65.2
2'F-ANA at 1 2 3 4 5 6 7 8 12 14 15 | 49.5
2'F-ANA at 1 2 3 7 8 10 11 13 15 | 63.7
2'F-ANA at 1 3 5 6 7 8 10 11 13 14 | 55.3
2'F-ANA at 1 2 3 4 6 7 10 14 15 | 71.4
2'F-ANA at 3 5 6 7 14 15 | 49.6
2'F-ANA at 3 5 6 7 8 9 10 11 13 14 15 | 56
2'F-ANA at 2 3 4 6 7 9 10 11 13 14 | 137
2'F-ANA at 3 5 12 13 14 15 | 60.1
2'F-ANA at 1 3 5 8 9 10 11 15 | 48.7
2'F-ANA at 2 3 4 5 12 14 | 57.3
2'F-ANA at 3 4 6 10 13 15 | 191
2'F-ANA at 2 3 6 9 11 12 14 15 | 348
2'F-ANA at 2 3 4 6 11 12 13 14 | 258
2'F-ANA at 2 3 5 6 8 9 11 13 14 15 | 109
2'F-ANA at 2 7 9 11 12 13 | 573
2'F-ANA at 2 6 8 10 12 13 14 15 | 78.7
2'F-ANA at 1 2 3 5 7 10 12 13 14 | 43.8

Block 2 — technique: universal PBM; form: double-stranded DNA, one strand shown; matrix: in vitro; concentration: not given; reading: higher = stronger binding
Target: Sal-like protein 4, full length isoform B (SALL4, Homo sapiens, UniProt Q9UJQ4-2, residues 1-616)
Notes: 8-mer, flanks averaged, mean of replicates
Sequence | E-score
TCGAGAAA | 0.0934
ATCCCAAT | 0.205
GTGTAAAA | 0.248
ATTGGCTG | -0.0764
ACCGGTGA | -0.17
AGCCTCCT | -0.223
CACCTTCA | -0.0473
GTCACTGA | -0.0568
CAACCGAG | -0.174
AACTGACT | -0.084
ACGAACGA | 0.0132
CTCGCCCC | -0.207
ACTGTCAG | -0.0426
CAGACCAA | -0.0637
AACACCAA | 0.149
CGATAGAA | 0.0605
AGTCTAAT | 0.141
CATGCCTA | -0.0184
ACCGCACT | -0.236
AAAATTAG | 0.283
GCCTGCTA | -0.123
CTAAGCAA | -0.186
ACACGTGA | 0.0624
CCAAGAGC | -0.326
CGCTAGTA | 0.054

Block 3 — technique: protein-binding microarray; form: double-stranded DNA, one strand shown; matrix: in vitro; concentration: 2200 nM top; notes: 60-bp whole probe; together with: salmon DNA 0.4 mg/ml; relative to: random background probes; reading: higher = stronger binding; shared flanks, not repeated: GCCTAGCAC … GTCTTGATTCGCTTGACGCTGCTG
Target: Interferon regulatory factor 7, full length, phosphomimetic (IRF7, Homo sapiens, UniProt Q92985, residues 1-503, S471D/S472D/S475D/S476D/S477D/S483D/S484D/S487D)
Residues (chain): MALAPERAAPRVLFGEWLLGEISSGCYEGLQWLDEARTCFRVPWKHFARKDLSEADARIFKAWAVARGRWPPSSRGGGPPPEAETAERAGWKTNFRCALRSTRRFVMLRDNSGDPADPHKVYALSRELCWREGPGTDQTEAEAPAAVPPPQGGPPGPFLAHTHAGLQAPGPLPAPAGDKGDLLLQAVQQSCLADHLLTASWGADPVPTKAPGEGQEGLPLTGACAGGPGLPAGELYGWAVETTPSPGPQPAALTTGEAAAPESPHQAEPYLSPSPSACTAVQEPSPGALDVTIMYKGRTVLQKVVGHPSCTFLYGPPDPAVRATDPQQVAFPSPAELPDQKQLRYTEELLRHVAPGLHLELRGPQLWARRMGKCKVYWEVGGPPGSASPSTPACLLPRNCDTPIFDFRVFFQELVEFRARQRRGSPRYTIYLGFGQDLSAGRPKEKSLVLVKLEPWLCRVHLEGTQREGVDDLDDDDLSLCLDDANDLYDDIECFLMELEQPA
Sequence | fitted relative affinity [z-score]
TCATTTATTTTTTTTATACTGTGCTAG | 1.39
TCAGCCAGCTCTTTCGTACTGTGCTAG | 1.3
TTAGGCTCCCTTTTCCTTTAGTGCTAG | 1.62
TTAGATTTGAGTATCGATTAGTGCTAG | -0.152
TAATGGATATATATCATTTAGTGCTAG | 0.25
GAAGGTTTCGACTATCGGGACGTGCTA | 2.82
TTAGATATCGGGTATCGATCAGTGCTA | 0.151
TTAGGACTGGGGTCTCGGTTAGTGCTA | -0.581
TAAGATTTCAGTTCCGATTAGTGCTAG | 1.79
GAGGGTTTCGGTCTCGGGACGTGCTAG | 3.81
CTTTTTTTCAAGAAACAGTTCGTGCTA | 0.467
TTAGGTCTGGGACTGGGTTAGTGCTAG | -0.834
TTAGGTTTCCTTTCTCTTTAGTGCTAG | 5.06
TTAGGTATCGGAACTGGGTTAGTGCTA | -0.182
TCTTTCACAAGACGAAAGGAGTGCTAG | 1.36
GAAGGTCTCCTTATCCTGACGTGCTAG | 0.682
TTAGATATCAGACGGGATTAGTGCTAG | -0.312
GATGATTTCAGTCTCGAGACGTGCTAG | 0.709
GACGGTTTCGGGTTTCTGGACGTGCTA | 8.54
TTAGGATTCCTTATCCTTTAGTGCTAG | 0.779
TGTTTTTGCTTTCTTTATGTGTGCTAG | 4.76
CTTCTCCTCCAGGTTCTCTGAGTGCTA | 0.715
TTAGGACTACTTCTCCTTTAGTGCTAG | 0.854
TCAAACTTGTGTTTGTCACTGTGCTAG | 0.481
TTAGGTATCGGGACTGGCTTAGTGCTA | -0.228

Block 4 — target: CCNE2, cyclin fold, Cln2 fusion (human); technique: yeast growth competition, sequencing; matrix: yeast; notes: strong parent motif; relative to: not given; reading: higher = stronger binding
Starting sequence: PKN2 docking peptide (human); VSAVRKLDFSDTM; partner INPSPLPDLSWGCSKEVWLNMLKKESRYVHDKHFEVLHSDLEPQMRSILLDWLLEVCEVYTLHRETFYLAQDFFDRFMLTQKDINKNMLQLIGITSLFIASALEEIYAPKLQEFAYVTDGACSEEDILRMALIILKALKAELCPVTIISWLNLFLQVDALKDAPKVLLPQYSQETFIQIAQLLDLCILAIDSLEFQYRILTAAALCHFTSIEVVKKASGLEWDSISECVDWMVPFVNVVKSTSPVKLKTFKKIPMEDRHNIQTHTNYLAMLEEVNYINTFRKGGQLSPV
Substitution | normalised enrichment score
D11W | 4.46
S10A | 4.24
K6M | 2.45
F9D | 0.0242
T12E | 3.91
A3F | 3.55
D11V | 5.01
D8K | 3.06
D8I | 3.42
D8M | 2.57
D11M | 5.2
S2E | 2.37
S10Y | 3.25
T12M | 4.83
V4E | 0.0516
V4D | -0.273
R5Y | 0.368
T12Y | 5.44
A3R | 0.333
V4C | 4.56
L7F | 0.0439
V4Q | 1.52
K6Q | 3.46
L7E | -0.181
V4P | 0.581

Block 5 — technique: protein binding microarray; form: double-stranded DNA, one strand shown; matrix: in vitro; concentration: not given; relative to: not given; reading: higher = stronger binding
Target: Histone acetyltransferase KAT6A, winged helix 2, GST fusion (KAT6A, Homo sapiens, UniProt Q92794, residues 85-181)
Notes: 8-mer, flanks averaged, mean of 2 arrays, mostly near background
Construct (chain): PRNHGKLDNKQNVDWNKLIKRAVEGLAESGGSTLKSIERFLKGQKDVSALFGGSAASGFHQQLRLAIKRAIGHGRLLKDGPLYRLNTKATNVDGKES
Sequence | E-score
ACAGAAGC | 0.0495
AACTTATT | -0.0174
AACCCGAT | 0.0121
CGGGAGAA | 0.127
ATACCCCC | -0.0202
CAGAAAAC | 0.153
GGGGTGCA | 0.0596
ACGATGTA | -0.114
GACCGCAC | 0.111
GTTATAAC | -0.106
GACATGCA | -0.119
CACAGGCC | 0.0123
ATCTGCAA | 0.00024
ATCCGTCG | -0.0566
GACGCACA | 0.018
CAGGTCGC | 0.208
CTGAGAGC | 0.0249
ATCCGCCC | 0.181
GCTGCGAC | 0.082
GCGAGCGA | 0.227
ACTCCGGC | 0.181
CCCACAGC | 0.0858
CTCCTCTC | -0.183
AGGGCACC | 0.0613
ACGTCAAT | -0.24

A few entries again (block 2):
Sequence | E-score
ATCCCAAT | 0.205
GTGTAAAA | 0.248
ATTGGCTG | -0.0764
ACCGGTGA | -0.17
AGCCTCCT | -0.223
CACCTTCA | -0.0473
GTCACTGA | -0.0568
CAACCGAG | -0.174
